Measurements of several laboratories.
Every numbered part comes from another study and shows a few of its results, in no order.

Sample 1
Target: Sal-like protein 4, full length isoform A (SALL4, Homo sapiens, UniProt Q9UJQ4, residues 1-1053)
UniProt Q9UJQ4, sequence (whole entry, looked up): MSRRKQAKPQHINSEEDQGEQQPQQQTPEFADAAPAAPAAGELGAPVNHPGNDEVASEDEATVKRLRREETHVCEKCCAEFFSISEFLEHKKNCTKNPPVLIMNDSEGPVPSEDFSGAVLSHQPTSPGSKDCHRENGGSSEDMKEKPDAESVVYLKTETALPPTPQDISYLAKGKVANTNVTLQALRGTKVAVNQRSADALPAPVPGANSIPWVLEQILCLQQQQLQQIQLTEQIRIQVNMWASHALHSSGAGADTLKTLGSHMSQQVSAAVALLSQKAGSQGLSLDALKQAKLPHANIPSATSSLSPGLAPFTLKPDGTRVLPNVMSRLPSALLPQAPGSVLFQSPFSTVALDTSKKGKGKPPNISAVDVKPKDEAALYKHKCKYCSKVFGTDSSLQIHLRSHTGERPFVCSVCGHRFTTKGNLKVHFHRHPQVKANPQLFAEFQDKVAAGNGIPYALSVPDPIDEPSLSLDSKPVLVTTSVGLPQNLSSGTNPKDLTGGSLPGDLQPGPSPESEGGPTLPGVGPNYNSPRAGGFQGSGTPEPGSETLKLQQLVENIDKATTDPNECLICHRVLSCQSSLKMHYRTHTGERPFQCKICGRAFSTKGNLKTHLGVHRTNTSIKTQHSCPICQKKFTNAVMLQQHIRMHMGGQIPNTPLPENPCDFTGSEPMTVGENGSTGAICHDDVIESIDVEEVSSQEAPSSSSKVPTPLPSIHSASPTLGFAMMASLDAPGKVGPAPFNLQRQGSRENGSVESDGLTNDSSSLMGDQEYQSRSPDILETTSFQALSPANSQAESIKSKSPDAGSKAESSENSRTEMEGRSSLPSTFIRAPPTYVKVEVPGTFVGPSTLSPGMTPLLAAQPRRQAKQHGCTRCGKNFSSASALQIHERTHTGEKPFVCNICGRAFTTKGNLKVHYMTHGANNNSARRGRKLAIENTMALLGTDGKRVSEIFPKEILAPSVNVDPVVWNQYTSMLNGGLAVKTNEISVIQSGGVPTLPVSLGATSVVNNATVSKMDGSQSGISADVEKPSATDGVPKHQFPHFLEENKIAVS
Technique: universal PBM
Molecule type: double-stranded DNA, one strand shown
Medium: in vitro
Concentration: 600 nM
Setting: 8-mer, flanks averaged, mean of replicates
Direction: higher = stronger binding
Sequence	E-score
ATCTCTGG	-0.0415
AACGCCCT	-0.114
AGTTGCGG	-0.0304
ATAGCTCG	-0.0517

Sample 2
Target: Interferon regulatory factor 3, full length, phosphomimetic (IRF3, Homo sapiens, UniProt Q14653, residues 1-427, S386D/S396D/S398D/S402D/T404D/S405D)
UniProt Q14653, sequence (whole entry, unmodified, looked up): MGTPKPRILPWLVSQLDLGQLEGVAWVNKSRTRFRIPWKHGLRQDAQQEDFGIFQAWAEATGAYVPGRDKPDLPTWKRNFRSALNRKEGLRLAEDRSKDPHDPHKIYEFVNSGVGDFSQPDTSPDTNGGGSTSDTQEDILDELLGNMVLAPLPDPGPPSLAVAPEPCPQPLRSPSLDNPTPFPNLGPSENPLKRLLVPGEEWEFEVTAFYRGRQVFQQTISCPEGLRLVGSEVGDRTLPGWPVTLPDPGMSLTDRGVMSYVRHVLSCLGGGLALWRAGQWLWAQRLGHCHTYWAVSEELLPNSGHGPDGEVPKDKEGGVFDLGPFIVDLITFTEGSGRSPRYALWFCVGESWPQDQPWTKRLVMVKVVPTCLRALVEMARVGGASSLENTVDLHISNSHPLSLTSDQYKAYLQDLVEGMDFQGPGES
Technique: protein-binding microarray
Molecule type: double-stranded DNA, one strand shown
Medium: in vitro
Concentration: 2540 nM top
Setting: 60-bp whole probe
Together with: salmon DNA 0.4 mg/ml
Reference: random background probes
Direction: higher = stronger binding
Sequence	fitted relative affinity [z-score]
GCCTAGCACGGGCTTTCCCAGCCTGGGGCTGTGCTAGTCTTGATTCGCTTGACGCTGCTG	0.307
GCCTAGCACTCACTTCTTGAACTCTTACTGTGCTAGGTCTTGATTCGCTTGACGCTGCTG	1.45
GCCTAGCACTCACATTTTTTTTGCAAACTGTGCTAGGTCTTGATTCGCTTGACGCTGCTG	0.453

Sample 3
Target: Histone acetyltransferase KAT6A, both winged helices, GST fusion (KAT6A, Homo sapiens, UniProt Q92794, residues 1-181)
Technique: protein binding microarray
Molecule type: double-stranded DNA, one strand shown
Medium: in vitro
Concentration: not given
Setting: 8-mer, flanks averaged, mean of 2 arrays, mostly near background
Reference: not given
Direction: higher = stronger binding
Target sequence (chain): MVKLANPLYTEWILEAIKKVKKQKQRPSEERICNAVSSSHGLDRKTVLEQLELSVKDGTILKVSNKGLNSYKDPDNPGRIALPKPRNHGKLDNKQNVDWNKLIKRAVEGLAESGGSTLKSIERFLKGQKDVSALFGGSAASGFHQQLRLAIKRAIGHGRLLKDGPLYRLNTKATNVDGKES
Sequence	E-score
CGGAGGTC	0.0316
CCGTGGAA	0.23
CCAACAAG	-0.274
AAAGATTT	-0.0198

Other studies, line by line
Substance	target	assay	system	setting	scale	quantity	result
PhoQ, residues 284 288 289 292 302 303 HSSMNL	PhoP, residues 12 14 15 18 19 LHATL (Escherichia coli, UniProt P23836)	Sort-seq, item: YFP reporter	E. coli	PhoQ-PhoP variant library, together with: 10 µM Mg2+	reference: high Mg2+ state, higher = stronger signaling	fold induction	28

Some of these lines once more (sample 2):
Sequence	fitted relative affinity [z-score]
GCCTAGCACTCACATTTTTTTTGCAAACTGTGCTAGGTCTTGATTCGCTTGACGCTGCTG	0.453
